Measured values gathered from unrelated publications.
Lines come from different studies, so protocols differ. ± gives the spread as reported.

Cc1cc(C#N)cc(C)c1Oc1nc(NC2CCN(Cc3cccc(Cl)c3)CC2)nc2ccccc12 gave a CC50 of > 0.251 µM (TZM-bl; cell growth or viability, XTT).
COc1ccc(S(=O)(=O)NCc2c[nH]nc2-c2cccs2)cc1 has a growth inhibition of ~6% (HCT-8; 10 µM, 24 h).
With OC[C@H]1O[C@@H](n2cnc3c(O)ncnc32)[C@H](F)[C@@H]1O the CC50 was > 250 µM (iCell cardiomyocytes; sulforhodamine B; 11 days, galactose medium).
Cc1nn(-c2ccc(S(=O)(=O)N[C@H](CO)CC(C)C)cc2)c2nn3nnnc3nc12 gave a tail DNA of 15.4 ± 1.8% (human peripheral blood lymphocytes; DNA damage, alkaline comet; 1 µM, 24 h).
For CC/C(=C(\c1ccc(O)cc1)c1ccc(OCCN(C)CCOCCOCCOCCOCCOCCOCCOCCOCCOCCN(C)CCOc2ccc(/C(=C(/CC)c3ccccc3)c3ccc(O)cc3)cc2)cc1)c1ccccc1, the cell density was 8% (U2OS transfected with ERβ; 10 µM, cytotoxicity).
COC1C=COC2(C)Oc3c(C)c(O)c4c(c3C2=O)C2=NC3(CCN(CC(C)C)CC3)NC2=C(NC(=O)C(C)=CC=CC(C)C(O)C(C)C(O)C(C)C(OC(=O)Nc2cccnn2)C1C)C4=O (stereo not drawn) has an intracellular/extracellular ratio of 23 (THP-1 derived macrophages; reference: intracellular over extracellular).
CC(=O)OC[C@H]1O[C@@H](Sc2sc(C(=O)c3ccc(Br)cc3)c(N)c2-c2nc3ccccc3s2)[C@H](OC(C)=O)[C@@H](OC(C)=O)[C@@H]1OC(C)=O: “maximum non-toxic concentration” 100 µg/mL (HEp-2; cytotoxicity; 72 h).
The inhibition of CC(C)=CCC[C@@H](C)[C@@H]1CC[C@]2(C)C3=C(CC[C@@]12C)[C@@]1(C)CC[C@H](OC(=O)c2ccccc2)C(C)(C)[C@@H]1CC3 is reported as 15.6% (HCT-15; cell growth or viability, SRB; 50 µM).
COc1cc(CNC(=O)C[C@H](C)CCC=C(C)C)ccc1OCc1cn(-c2ccc(Cl)cc2Cl)nn1 has a growth percent of 11.3% (HOP-62; SRB; 10 µM, 48 h).
For C=CC(=O)Nc1cc(Nc2ncnc(Nc3cc(Cl)c(F)cc3C(C)(C)O)n2)c(OC)cc1N1CCC(N(C)C)C1 (stereo not drawn), the CLint was 2.8 (µL/min)/(10⁶ cells) (human hepatocytes).
For C=C(c1ncc(C(=O)O)cn1)c1cc2c(cc1C)C(C)(C)CCC2(C)C, “lowest effective concentration” read 6.64 µg/mL (TK6; cytotoxicity, GreenScreen; without S9).
O=c1ccn([C@@H]2O[C@H](CO)[C@@H](O)[C@H]2F)c(=O)[nH]1: cytotoxicity “not toxic” (human cell line panel; up to 250 µM, 11 d).
The CC50 of Cc1cc(C#N)cc(C)c1Oc1nc(NC2CCN(Cc3cccc(C(N)=O)c3)CC2)nc2ccccc12 is reported as > 0.247 µM (TZM-bl; cell growth or viability, XTT).
With CC(=O)[O-].CN(C)C=O.F[P-](F)(F)(F)(F)F.[Co+2].c1ccc(CN2CCN3CCCN(CC2)CCN(Cc2ccccc2)CC3)cc1 the IC50 was > 10 µM (THP-1; cell growth or viability).
The efflux ratio of COc1ccc(NC(=O)N2CCCN3CCC(c4ccc(C#Cc5ccccc5)cc4)C3C2)cc1 (stereo not drawn) is reported as 2.84 (MDCK-MDR1; reference: B-A over A-B).
For O=c1[nH]cc(C(c2ccccc2Br)c2c[nH]c(=O)[nH]c2=O)c(=O)[nH]1, cytotoxicity read “not toxic” (Ba/F3; 1 µg/mL).
With Cc1ccc(NC(=O)N2CCCN3CCC(c4ccc(C#Cc5cccnc5)cc4)C3C2)cc1 (stereo not drawn) the Papp A→B was 0.02 ×10⁻⁶ cm/s (MDCK-MDR1; Caco-2).
Under “maximum non-toxic concentration”, Nc1c(C(=O)c2ccc(Br)cc2)sc(S)c1-c1nc2ccccc2s1 is recorded as 100 µg/mL (HEp-2; cytotoxicity; 72 h).
CC(=O)[O-].F[P-](F)(F)(F)(F)F.[Co+2].c1ccc(CN2CCCNCCN(Cc3ccccc3)CCCNCC2)cc1 gave an IC50 of > 15 µM (THP-1; cell growth or viability).
CNCc1ccc2c(c1)N(C(=O)OCc1c(F)c(F)c(F)c(F)c1F)[C@H](CNC(=N)N)[C@H]2NC(=O)C(=O)Nc1ccc(Cl)c(F)c1 has a cytotoxic concentration of ≥ 50 µM (TZM-bl; cell proliferation; 72 h).
CC(C)=C1CC[C@]2(COC(=O)c3ccccc3)[C@@H](OC(=O)c3ccccc3)/C=C(\C)CC[C@@H]3O[C@@]3(C)C[C@@H](OC(=O)c3cccnc3)[C@@H]12 gave a viability of 87.7% (HepG2; cell growth or viability, CCK-8; 40 µM, 24 h).
Under “maximum non-toxic concentration”, CCOC(=O)c1cc(-c2nc3ccccc3s2)c(=O)n(NS(=O)(=O)c2ccccc2)c1N is recorded as 110 µg/mL (HEp-2; trypan blue; 72 h).
With O=C1C[C@H](c2ccc(O)c(O)c2)c2c(cc(O)c3c2O[C@H](c2ccc(O)c(O)c2)[C@H](O)C3)O1 the cytotoxic concentration was 10 µg/mL (rat L6 myotubes; cell viability, MTT; 2% FBS).
Under “maximum non-toxic concentration”, CC(=O)OC[C@H]1O[C@@H](Sc2sc(C(=O)c3ccc(C)cc3)c(N)c2-c2nc3ccccc3s2)[C@H](OC(C)=O)[C@@H](OC(C)=O)[C@H]1OC(C)=O is recorded as 100 µg/mL (HEp-2; cytotoxicity; 72 h).
COc1cc2c(OC3OCC(OC)C(OC)C3OC(=O)c3ccc(Br)cc3)c3c(c(-c4ccc5c(c4)OCO5)c2cc1OC)C(=O)OC3 (stereo not drawn): cytotoxicity “not toxic” (FaDu, CAL-27 and Ca9-22; MTT; concentration not given, 48 h).
For Nc1ccn([C@@H]2O[C@H](CO)[C@@H](O)[C@H]2F)c(=O)n1, the CC50 was > 250 µM (iCell cardiomyocytes; sulforhodamine B; 11 days, galactose medium).
Cc1cc(C#N)cc(C)c1Oc1nc(NC2CCN(Cc3ccc(Br)cc3)CC2)nc2ccccc12 gave a CC50 of > 0.23 µM (TZM-bl; cell growth or viability, XTT).
For CC(=O)N[C@H](C(=O)N[C@H](C(=O)N[C@@H](CCCNC(=N)N)C(=O)N1Cc2ccccc2C[C@H]1C(=O)N[C@@H](Cc1ccccc1)C(N)=O)C1CCCCC1)C(C)C, the cytokine level was 9.6 ± 12.8 pg/mL (human PBMC; Bio-Plex multiplex, measured: G-CSF; 250 µg/mL, 24 h).
For C=C(c1cc(F)c(C(=O)O)c(F)c1)c1cc2c(cc1C)C(C)(C)CCC2(C)C, “lowest effective concentration” read 47.3 µg/mL (TK6; cytotoxicity, GreenScreen; with: rat liver S9).
The inhibition of C[C@H](CCC=O)[C@@H]1CC[C@]2(C)C3=C(CC[C@@]12C)[C@@]1(C)CC[C@H](O)C(C)(C)[C@@H]1CC3 is reported as 74.6% (HCT-15; cell growth or viability, SRB; 50 µM).
For COC1C=COC2(C)Oc3c(C)c(O)c4c(c3C2=O)C2=NC3(CCN(CC(C)C)CC3)NC2=C(NC(=O)C(C)=CC=CC(C)C(O)C(C)C(O)C(C)C(OC(=O)c2cccnc2)C1C)C4=O (stereo not drawn), the intracellular/extracellular ratio was 44 (THP-1 derived macrophages; reference: intracellular over extracellular).
For CC1OC(Oc2c(-c3ccc(O)cc3)oc3cc(O)cc(O)c3c2=O)C(OC(=O)C=Cc2ccc(O)cc2)C(O)C1OC(=O)C=Cc1ccc(O)cc1 (stereo not drawn), the IC50 was > 10 µM (human liver cancer cells; cell growth; 48 h).
Nc1ncnc2c1ncn2[C@@H]1O[C@H](CO)[C@@H](O)[C@H]1F has a CC50 ratio of 2 to 10 fold (SNB-78; cytotoxicity, sulforhodamine B; 11 days; reference: glucose medium over galactose medium).
For CC/C=C\C/C=C\C/C=C\C/C=C\C/C=C\C/C=C\CCC(=O)OC(CO)COP(=O)(O)OCCN (stereo not drawn), the Papp was 75 ×10⁻⁶ cm/s (human brain-like endothelial cell monolayer; LC-MS; in vitro BBB model; 10 µM, 180 min, pH 7.4).
CC(=O)[O-].CN1CCN2CCN(CC1)CCN(Cc1ccccc1)CC2.F[P-](F)(F)(F)(F)F.[Cu+2] gave an IC50 of > 20 µM (THP-1; cell growth or viability).
The cell density of CC/C(=C(\c1ccc(O)cc1)c1ccc(OCCN(C)CCOCCOCCOCCOCCOCCOCCOCCOCCOCCOCCOCCN(C)CCOc2ccc(/C(=C(/CC)c3ccccc3)c3ccc(O)cc3)cc2)cc1)c1ccccc1 is reported as 7% (U2OS transfected with ERβ; 10 µM, cytotoxicity).
CC[N+]1=C(/C=C/c2ccc(OC(C)C)cc2)C(C)(C)c2c1ccc1ccccc21 — result for “cell membrane permeability”: 18.2% (BEAS-2B; 5 µM, 30 min, 37 °C).
The growth percent of COc1cc(CNC(=O)C[C@H](C)CCC=C(C)C)ccc1OCc1cn(-c2ccccc2Cl)nn1 is reported as 91.9% (HCC 2998; SRB; 10 µM, 48 h).
Under cytotoxicity, N#Cc1cccc(/C=C/C(=O)c2ccc(O)cc2)c1 is recorded as “active” (patient-derived glioblastoma cells; Alamar Blue; concentration not given).
The CC50 of Cc1cc(C#N)cc(C)c1Oc1nc(NC2CCN(Cc3ccc(C#N)cc3)CC2)nc2ccccc12 is reported as > 0.256 µM (TZM-bl; cell growth or viability, XTT).
CCCCn1cc(C(=O)O)c(=O)c2cc(F)c3[nH]nnc3c21 gave an IC50 of 73.7 µM (SW-620; cell growth or viability, SRB).
For CNc1c(C)n(C)n(-c2ccccc2)c1=O, mRNA level read “no effect” (HepaRG differentiated; measured: CYP2D6; 300 µM, 72 h, with: 2 mM metformin).
The IC50 of C=CC(=C)CC[C@]1(C)[C@H](C)CC[C@@]23C(=C[C@H](OC(=O)CCCCC)C[C@@H]12)[C@@H](OC(C)=O)O[C@H]3OC(C)=O is reported as 0.61 µM (KB-VIN (P-gp-overexpressing); cell growth, SRB).
O=c1[nH]cc(C(c2cccc(C(F)(F)F)c2)c2c[nH]c(=O)[nH]c2=O)c(=O)[nH]1: cytotoxicity “not toxic” (Ba/F3; 1 µg/mL).
With CC(=O)[O-].F[P-](F)(F)(F)(F)F.[Cu+2].c1ccc(CN2CCN3CCN(CC2)CCN(Cc2ccccc2)CC3)cc1 the IC90 was > 20 µM (THP-1; cytotoxicity).
For [99Tc+].[C-]#[N+]CC(C)(C)OC.[C-]#[N+]CC(C)(C)OC.[C-]#[N+]CC(C)(C)OC.[C-]#[N+]CC(C)(C)OC.[C-]#[N+]CC(C)(C)OC.[C-]#[N+]CC(C)(C)OC, the canalicular efflux was 23.6 ± 3.4% (rat sandwich-cultured hepatocytes; 20 min, culture day 4; reference: preloaded amount).
CCCCCCCO[C@@H]1O[C@H](CO)[C@@H](O[C@H]2O[C@H](CO)[C@@H](O)[C@H](O)[C@H]2O)[C@H](O)[C@H]1O gave an EC50 of > 250 µM (B16-F10; cytotoxicity, MTT; 24 h).
For CC1(C)C(/C=C/C2=C(Cl)C(=C/C=C3/N(CCCCCC(=O)O)c4ccccc4C3(C)C)/C[N+](C)(C)C2)=[N+](CCCCCC(=O)O)c2ccccc21, “highest non-cytotoxic concentration” read ≥ 80 µM (U-87 MG; cell viability, AlamarBlue; 72 h in dark, 10% FBS, tested up to 80 µM).

Excerpt of the above:
The CC50 of Cc1cc(C#N)cc(C)c1Oc1nc(NC2CCN(Cc3ccc(C#N)cc3)CC2)nc2ccccc12 is reported as > 0.256 µM (TZM-bl; cell growth or viability, XTT).
CCCCn1cc(C(=O)O)c(=O)c2cc(F)c3[nH]nnc3c21 gave an IC50 of 73.7 µM (SW-620; cell growth or viability, SRB).
For CNc1c(C)n(C)n(-c2ccccc2)c1=O, mRNA level read “no effect” (HepaRG differentiated; measured: CYP2D6; 300 µM, 72 h, with: 2 mM metformin).
The IC50 of C=CC(=C)CC[C@]1(C)[C@H](C)CC[C@@]23C(=C[C@H](OC(=O)CCCCC)C[C@@H]12)[C@@H](OC(C)=O)O[C@H]3OC(C)=O is reported as 0.61 µM (KB-VIN (P-gp-overexpressing); cell growth, SRB).
O=c1[nH]cc(C(c2cccc(C(F)(F)F)c2)c2c[nH]c(=O)[nH]c2=O)c(=O)[nH]1: cytotoxicity “not toxic” (Ba/F3; 1 µg/mL).
With CC(=O)[O-].F[P-](F)(F)(F)(F)F.[Cu+2].c1ccc(CN2CCN3CCN(CC2)CCN(Cc2ccccc2)CC3)cc1 the IC90 was > 20 µM (THP-1; cytotoxicity).
For [99Tc+].[C-]#[N+]CC(C)(C)OC.[C-]#[N+]CC(C)(C)OC.[C-]#[N+]CC(C)(C)OC.[C-]#[N+]CC(C)(C)OC.[C-]#[N+]CC(C)(C)OC.[C-]#[N+]CC(C)(C)OC, the canalicular efflux was 23.6 ± 3.4% (rat sandwich-cultured hepatocytes; 20 min, culture day 4; reference: preloaded amount).
